# Measured values gathered from unrelated publications.
# Protocols differ between the studies behind these lines. ± gives the spread as reported.
# CXCR4: C-X-C chemokine receptor type 4 (CXCR4, Homo sapiens, UniProt P61073)
SMILES,target or system,test,test system,conditions,scale,quantity,result
C=CC(=O)Nc1cc(Nc2nccc(-c3cn(C)c4ccccc34)n2)c(OCC(F)(F)F)nc1N(C)CCN(C)C,"Cytochrome P450 2C9 (CYP2C9, Homo sapiens, UniProt P11712)","enzyme activity, inhibitor","human, liver microsomes",10 µM,,activity vs control,100%
COc1ccc(-c2csc(N/N=C(\C)c3cc(O)cc(O)c3)n2)cc1,,LC-MS/MS,rat plasma,"3.75 ng/mL, 45 days, -70 °C",,long-term stability change,-5.87%
O=C(O)C1CN(Cc2ccc(-c3noc(-c4ccc(OCC[18F])c(C(F)(F)F)c4)n3)cc2)C1,,,"rat, kidney","intravenous, 2 h",,tracer uptake,0.845 %ID/g
CCn1cc(/C=C/c2ccc3ccccc3[n+]2CC)c2ccccc21,,,DMSO,,,molar absorptivity,25500 M⁻¹ cm⁻¹
[2H]C([2H])([2H])NC(=O)c1ccc(N2C(=S)N(c3ccc(C#N)c(C(F)(F)F)c3)C(=O)C2(C)C)cc1F,,,"male human, plasma","oral, 80 mg, single dose, fasted",,Tmax,1.5 h
Cc1ccc(NCC(=O)N2CCNCC2)cc1S(=O)(=O)N1CCOCC1,,,water,,,kinetic solubility,> 250 µM
NC1CC=C(c2cc3c(Nc4cc5ncsc5cc4F)ncnc3s2)CC1 (stereo not drawn),,metabolic stability,"human, liver microsomes",1 µM,,half-life,> 2 h
CN1CCC[C@]1(C)/C=C/S(=O)(=O)NC(=O)Nc1c2c(cc3c1CCC3)CCC2,,,"human, plasma","oral, 25 mg, single dose",,Tmax,1.5 h
CCCC(CCC(=O)O)NC(=O)c1ccc2c(c1)OCO2 (stereo not drawn),,,"male Sprague-Dawley rats, plasma","oral, 50 mg/kg of parent drug",baseline: 50 over 20 mg/kg dose,AUC(0-last) ratio,3.26
Oc1ccc2ccccc2c1/N=N/c1ccc(/N=N/c2ccccc2)cc1,,,rat whole blood extract,"0.2 µg/L, 30 days, -20 °C, long-term storage",,measured concentration,0.204 µg/L
COc1cc(/C=C/C(O)=C/C(=O)/C=C/c2ccc(O[C@@H]3O[C@H](C(=O)O)[C@@H](O)[C@H](O)[C@H]3O)c(OC)c2)ccc1O,,,"mouse, tumour","90 mg/kg, iv versus ip",,free curcumin level,no effect
CCCC[C@H](NC(=O)CCCCCCCNC(=O)CN1CCN(CC(=O)O)CCN(CC(=O)O)CC1)C(=O)N[C@H]1CC(=O)NCCCC[C@@H](C(N)=O)NC(=O)[C@H](Cc2c[nH]c3ccccc23)NC(=O)[C@H](CCCNC(=N)N)NC(=O)[C@@H](Cc2ccccc2)NC(=O)[C@H](Cc2c[nH]cn2)NC1=O [copper-64 labelled],,,"C57 mice, spleen","intravenous, 0.37 MBq, 0.5 h",,tissue uptake,0.99 ± 0.25 %ID/g
Cc1noc(C)c1Cn1cc(N2C(=O)CN(Cc3cccc(OS(=O)(=O)O)c3)C2=O)cn1,,,"rat Sprague-Dawley male, plasma","oral, 10 mg/kg of parent drug",,AUC(0-last),18200 ng·h/mL
CCCC[C@H](NC(=O)CNC(=O)CNC(=O)CN1CCN(CC(=O)O)CCN(CC(=O)O)CCN(CC(=O)O)CC1)C(=O)N[C@H]1CC(=O)NCCCC[C@@H](C(N)=O)NC(=O)[C@H](Cc2c[nH]c3ccccc23)NC(=O)[C@H](CCCNC(=N)N)NC(=O)[C@@H](Cc2ccccc2)NC(=O)[C@H](Cc2c[nH]cn2)NC1=O [gallium-67 labelled],,,"C57 mice, female, B16/F1 melanoma, tumour over blood","intravenous, 0.037 MBq, 2 h",,tumour to tissue uptake ratio,26.2
CC(C)c1cnc(-c2cc(Cl)ccc2F)cc1Nc1ccncc1C(=O)NC(CO)CO,,,"human, advanced solid tumour","oral, dose not given, phase I monotherapy",,grade 3 ALT increase incidence,9.5%
O=C(O)[C@@H]1C[C@@H](O)CN1C(=O)[C@@H]1CCCN1,,potentiometric titration,,"37 °C, MAH-3 complex, together with: Fe(III)",,log beta,-6.74
CCOC(=O)c1[nH]c(C)c(/C=C/C2=[N+]3C(=C(c4cc(OC)cc(OC)c4)c4c(C)c(I)c(/C=C/c5c(C)[nH]c(C(=O)OCC)c5C)n4[B-]3(F)F)C(C)=C2I)c1C,,,DMSO,,,absorption maximum,693 nm
COc1ccc2cc(-c3ccc(-c4ccc(C)cn4)nc3)oc2c1,,TCSPC,hexanes,,,fluorescence lifetime,1.12 ns
COCC1CN(C2CCN(c3cc(OC)c(Nc4ncc(Br)c(Nc5ccc6c(c5P(C)(C)=O)OCCO6)n4)cc3C)CC2)C1,,,human,"oral, dose not given",baseline: patients,grade ≥3 decreased ejection fraction,3.7%
C[Si](C)(C[C@@H](CN)CC(=O)O)C1CC1,,neuromuscular coordination,Wistar rat male,"oral, 300 mg/kg, 2 h",,performance time,180 s
O=C([O-])CN1CCN(CC(=O)[O-])CCN(CC(=O)NCCc2ccc3c(c2)C2C=CCC2C(c2cc4c(cc2Br)OCO4)N3)CCN(CC(=O)[O-])CC1.[111In+3] (stereo not drawn),Hec50 tumour model,,"host not given, bone","1 h, tumour-bearing",,tracer uptake,0.85 %ID/g
C#CC1(NC(=O)C(CC(C)(C)F)NC(c2ccc(-c3ccc(S(C)(=O)=O)cc3)cc2)C(F)(F)F)CC1 (stereo not drawn),,LC-MS UV trace,aqueous buffer,"23 h, pH 7.5, 37 °C, together with: GSH 5 mM",,GSH adduct formation,0%
CC[C@H](C)[C@H](NC(=O)[C@H](N)Cc1ccc(O)cc1)C(=O)N[C@H]1CSSC[C@@H](C(=O)N(C)[C@H](C(N)=O)[C@@H](C)CC)NC(=O)[C@H](CCCNC(=N)N)NC(=O)[C@H](Cc2c[nH]cn2)NC(=O)[C@H](C)NC(=O)CN(C)C(=O)[C@H](Cc2c[nH]c3ccccc23)NC(=O)[C@H](CC(=O)O)NC(=O)[C@H](CCC(N)=O)NC(=O)[C@H](Cc2cn(C)c3ccccc23)NC(=O)[C@H](C(C)C)NC1=O,,UPLC-ESI-MS,cynomolgus monkey plasma,"3.58 µg/mL, 24 h, 4 °C, autosampler after SPE",,recovery,99 ± 0.3%
CCn1c(=O)n(CCO)c(=O)c2c1nc(/C=C/c1ccc(OC)c(OC)c1)n2C,,,"healthy humans, plasma","oral, 40 mg, together with: rifampin 600 mg/day",baseline: without rifampin,change in AUCinf,-70%
Cn1c(=O)oc2ccc(-c3ccc(CC(C#N)NC(=O)C4CNCCCO4)c(F)c3)cc21 (stereo not drawn),,refers to: skin exfoliation,human,"80 mg, treatment-related, single dose, fasted",,subjects with adverse event,0%
CC(=O)OC[C@H]1O[C@@H](Sc2sc(C(=O)c3ccc(Br)cc3)c(N)c2-c2nc3ccccc3s2)[C@H](OC(C)=O)[C@@H](OC(C)=O)[C@@H]1OC(C)=O,,,DMEM,"72 h, coxsackievirus B4 assay host cells",,maximum nontoxic concentration,100 µg/mL
CCCC[C@@H]1NC(=O)[C@@H](NC(=O)[C@H](CCC(=O)O)NC(=O)CNC(=O)CN2CCN(CC(=O)O)CCN(CC(=O)O)CCN(CC(=O)O)CC2)CCCCNC(=O)C[C@@H](C(N)=O)NC(=O)[C@H](C(C)C)NC(=O)[C@@H]2CCCN2C(=O)[C@H](CCCNC(=N)N)NC(=O)CNC(=O)[C@H](Cc2c[nH]c3ccccc23)NC(=O)[C@H](CCCNC(=N)N)NC(=O)[C@@H](Cc2ccccc2)NC(=O)[C@H](Cc2c[nH]cn2)NC(=O)[C@H](CCC(=O)O)NC1=O [gallium-67 labelled],,,"normal C57 mice, pancreas","intravenous, 0.037 MBq/mouse, 2 h",,tissue uptake,0.15 ± 0.07 %ID/g
C=C(c1cc(F)c(C(=O)O)c(F)c1)c1cc2c(cc1C)C(C)(C)CCC2(C)C,,,"Sprague-Dawley rat, male","oral, 100 mg/kg, 6 h, sesame oil vehicle",,blood triglycerides,191 ± 56.7 mg/dL
O=C(NCC1OC2CCC=CCCC2O1)c1ccc([18F])nc1 (stereo not drawn),,,PBS,"2 h, 37 °C",,radiochemical purity,95%
COc1cc(NC(C)=O)c2c(c1O)-c1c(OC)c(OC)cc3c1C(C2)N(C)CC3 (stereo not drawn),,,"rat, plasma","5 µg/mL, 4 h, room temperature, short-term storage",,remaining compound,102 ± 3.4%
CC(Oc1cc(-c2ccccc2)nc2cccnc12)C(=O)N(C)c1ccccc1 (stereo not drawn),human leukocytes,binding,,,baseline: LAB over HAB genotype,Ki ratio,21 ± 8
C[C@]12CC[C@@H]3c4ccc(OCC(=O)N[C@@H](CCCCNC(=O)CN5CCN(CC(=O)[O-])CCN(CC(=O)[O-])CCN(CC(=O)[O-])CC5)C(=O)O)cc4CC[C@H]3[C@@H]1CCC2=O.[68Ga+3],,,female Balb/c mice,2.5 h,,liver uptake,0.89 ± 0.2 %IA/g
[64Cu+2].c1cnc(CNCc2ccc(CN3CCCN4CCNCCCN(CC4)CC3)cc2)nc1,CXCR4,,"NOD/SCID mice, U87 xenografts, U87-stb-CXCR4 tumour",90 min post-injection,,tissue uptake,36.1 ± 4.84 %ID/g
CC[C@H](C)[C@H](NC(=O)[C@H](Cc1c[nH]cn1)NC(=O)[C@H](CCCNC(=N)N)NC(=O)[C@H](CCCNC(=N)N)NC(=O)[C@H](CCCNC(=N)N)NC(C)=O)C(=O)N[C@H](C(=O)N[C@@H](CCCNC(=N)N)C(=O)N[C@@H](CCCCN)C(=O)N[C@@H](CCCNC(=N)N)C(=O)N[C@H](C(=O)N[C@@H](CC(C)C)C(=O)N[C@@H](CCCNC(=N)N)C(=O)N[C@@H](CCCNC(=N)N)C(=O)N[C@@H](CC(C)C)C(=O)N[C@@H](CC(C)C)C(=O)N[C@@H](CCC(N)=O)C(N)=O)[C@@H](C)O)C(C)C,,,PC/PIP2 99:1 vesicles,,,molar partition coefficient,60000 M⁻¹
N=C(N)NCCC[C@@H]1NC(=O)[C@H](Cc2c[nH]c3ccccc23)NC(=O)[C@@H](CC2CCCCC2)NC(=O)[C@@H]2CCCN2C(=O)[C@@H](NC(=O)CCc2ccccc2)CCCNC1=O,,two-compartment model,"C57BL/6J mice, brain","intravenous, 1 mg/kg",,beta rate constant,0.27 h⁻¹
Cc1cc(O)c(C=O)c2c1C(=O)Oc1c(CO)c(O)c3c(c1O2)C(O)OC3=O (stereo not drawn),,mating test,"rat, male, streptozotocin-induced diabetes",10 mg/kg,,corpora lutea per female,12.3 ± 0.48
CC(=O)N([O-])CCCCCNC(=O)CCC(=O)N([O-])CCCCCNC(=O)CCC(=O)N([O-])CCCCCN.[89Zr+4],,radio-iTLC,aqueous buffer,"initial, pH 5.5, 37 °C, EDTA challenge, together with: 100-fold excess EDTA",,intact complex,99.1 ± 0.2%
COc1ccc(NC(=O)N2CCCN3CCC(c4ccc(C#Cc5cccc(C)c5)cc4)C3C2)cc1 (stereo not drawn),Toxoplasma gondii,parasite growth,"HFF, RH type I luciferase",,,EC90,5.6 µM
CC(=O)N[C@H](C(=O)N[C@H](C(=O)N[C@@H](CCCNC(=N)N)C(=O)N1Cc2ccccc2C[C@H]1C(=O)N[C@@H](Cc1ccccc1)C(N)=O)C1CCCCC1)C(C)C,human PBMC,"Bio-Plex multiplex, refers to: IL-1ra",,"500 µg/mL, 24 h",,cytokine level,151 ± 69.4 pg/mL
COC(=O)c1cnc(-c2cnccn2)cc1C(=O)OC.COC(=O)c1cnc(-c2cnccn2)cc1C(=O)OC.F[P-](F)(F)(F)(F)F.[Ag+],calf thymus DNA,ethidium bromide displacement,,pH 7.4,,Stern-Volmer constant,1500 ± 10 M⁻¹
CN(CCCNC(=O)c1cccc(C(=O)O)c1)CCCNC(=O)c1cc(NC(=O)c2cc(NC(=O)c3cc(NC(=O)c4cc(NC(=O)[C@H](N)CCNC(=O)c5cc(NC(=O)c6cc(NC(=O)c7nc(NC(=O)c8nccn8C)cn7C)cn6C)cn5C)cn4C)cn3C)cn2C)cn1C,,,"C57BL/6 mice, plasma","intraperitoneal, 120 nmol/animal, 1.5 h",,injected dose in plasma,23%
[64Cu+2].c1ccc(CNCc2ccc(CN3CCCN4CCNCCCN(CC4)CC3)cc2)nc1,CXCR4,,"NOD/SCID mice, U87 xenografts, U87-stb-CXCR4 tumour",240 min post-injection,,tissue uptake,19.6 ± 5.55 %ID/g
O=c1nc(NO)ccn1[C@@H]1O[C@H](CO)[C@@H](O)[C@H]1O,,"western blot, refers to: CYP2C11","normal rats, liver","oral, 80 mg/kg twice daily, 5 days",baseline: untreated normal rats,protein level,0.7 fold
CC(=O)Nc1ccc(C(N)=O)c(F)c1,,LC-MS/MS,"human, plasma","oral, 25 mg, parent drug equivalents, 1",,AUC,2120 µg-eq·h/L
CC(Oc1cc(-c2ccccc2)nc2ncccc12)C(=O)N(C)c1ccccc1 (stereo not drawn),human leukocytes,binding,,,baseline: LAB over HAB genotype,Ki ratio,5 ± 2

# A few entries again:
SMILES,target or system,test,test system,conditions,scale,quantity,result
CC[C@H](C)[C@H](NC(=O)[C@H](N)Cc1ccc(O)cc1)C(=O)N[C@H]1CSSC[C@@H](C(=O)N(C)[C@H](C(N)=O)[C@@H](C)CC)NC(=O)[C@H](CCCNC(=N)N)NC(=O)[C@H](Cc2c[nH]cn2)NC(=O)[C@H](C)NC(=O)CN(C)C(=O)[C@H](Cc2c[nH]c3ccccc23)NC(=O)[C@H](CC(=O)O)NC(=O)[C@H](CCC(N)=O)NC(=O)[C@H](Cc2cn(C)c3ccccc23)NC(=O)[C@H](C(C)C)NC1=O,,UPLC-ESI-MS,cynomolgus monkey plasma,"3.58 µg/mL, 24 h, 4 °C, autosampler after SPE",,recovery,99 ± 0.3%
CCn1c(=O)n(CCO)c(=O)c2c1nc(/C=C/c1ccc(OC)c(OC)c1)n2C,,,"healthy humans, plasma","oral, 40 mg, together with: rifampin 600 mg/day",baseline: without rifampin,change in AUCinf,-70%
Cn1c(=O)oc2ccc(-c3ccc(CC(C#N)NC(=O)C4CNCCCO4)c(F)c3)cc21 (stereo not drawn),,refers to: skin exfoliation,human,"80 mg, treatment-related, single dose, fasted",,subjects with adverse event,0%
